Measurements collected from several papers.
Compare with care: the assays were run in different laboratories. ± gives the spread as reported.
Beta-glucuronidase: Beta-glucuronidase (Lachnospira eligens, UniProt C4Z6Z2)
SUMO-activating enzyme subunit 2 with SAE1: SUMO-activating enzyme subunit 2, with SAE1 (Homo sapiens, UniProt Q9UBT2)
Grin1/Grin2a/Grin2b MK-801 channel binding site: Grin1/Grin2a/Grin2b, MK-801 channel binding site (Rattus norvegicus, UniProt P35439+Q00959+Q00960)
Squalene synthase ERG9: Squalene synthase ERG9 (Saccharomyces cerevisiae, UniProt P29704)
KCNJ13 M125R: Inward rectifier potassium channel 13 (KCNJ13, Homo sapiens, UniProt O60928, M125R)
hdac6 CD2 catalytic domain: Histone deacetylase 6, CD2 catalytic domain (hdac6, Danio rerio, UniProt F8W4B7)
uidA: Beta-glucuronidase (uidA, Escherichia coli, UniProt P05804)

By UniProt entry, the sequences of proteins in these tests, tags left out. Residues count along the entry.
UniProt C4Z6Z2, 1-611: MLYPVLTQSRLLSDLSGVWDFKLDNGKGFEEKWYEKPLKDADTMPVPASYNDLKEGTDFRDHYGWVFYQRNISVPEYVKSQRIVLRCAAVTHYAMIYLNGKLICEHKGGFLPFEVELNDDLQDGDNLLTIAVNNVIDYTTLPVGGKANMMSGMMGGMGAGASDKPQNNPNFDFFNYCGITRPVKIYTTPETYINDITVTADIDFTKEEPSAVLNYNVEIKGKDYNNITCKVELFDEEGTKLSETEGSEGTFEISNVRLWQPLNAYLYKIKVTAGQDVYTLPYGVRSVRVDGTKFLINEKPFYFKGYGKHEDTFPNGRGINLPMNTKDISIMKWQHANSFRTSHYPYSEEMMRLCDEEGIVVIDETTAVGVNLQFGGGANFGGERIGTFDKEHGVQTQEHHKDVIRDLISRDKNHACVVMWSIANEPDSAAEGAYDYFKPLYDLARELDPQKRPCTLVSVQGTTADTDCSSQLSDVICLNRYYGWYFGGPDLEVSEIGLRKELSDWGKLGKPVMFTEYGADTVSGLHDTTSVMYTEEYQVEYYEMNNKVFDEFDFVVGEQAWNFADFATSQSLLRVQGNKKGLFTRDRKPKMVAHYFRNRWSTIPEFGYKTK
UniProt Q00960, 27-1482 limits assumed: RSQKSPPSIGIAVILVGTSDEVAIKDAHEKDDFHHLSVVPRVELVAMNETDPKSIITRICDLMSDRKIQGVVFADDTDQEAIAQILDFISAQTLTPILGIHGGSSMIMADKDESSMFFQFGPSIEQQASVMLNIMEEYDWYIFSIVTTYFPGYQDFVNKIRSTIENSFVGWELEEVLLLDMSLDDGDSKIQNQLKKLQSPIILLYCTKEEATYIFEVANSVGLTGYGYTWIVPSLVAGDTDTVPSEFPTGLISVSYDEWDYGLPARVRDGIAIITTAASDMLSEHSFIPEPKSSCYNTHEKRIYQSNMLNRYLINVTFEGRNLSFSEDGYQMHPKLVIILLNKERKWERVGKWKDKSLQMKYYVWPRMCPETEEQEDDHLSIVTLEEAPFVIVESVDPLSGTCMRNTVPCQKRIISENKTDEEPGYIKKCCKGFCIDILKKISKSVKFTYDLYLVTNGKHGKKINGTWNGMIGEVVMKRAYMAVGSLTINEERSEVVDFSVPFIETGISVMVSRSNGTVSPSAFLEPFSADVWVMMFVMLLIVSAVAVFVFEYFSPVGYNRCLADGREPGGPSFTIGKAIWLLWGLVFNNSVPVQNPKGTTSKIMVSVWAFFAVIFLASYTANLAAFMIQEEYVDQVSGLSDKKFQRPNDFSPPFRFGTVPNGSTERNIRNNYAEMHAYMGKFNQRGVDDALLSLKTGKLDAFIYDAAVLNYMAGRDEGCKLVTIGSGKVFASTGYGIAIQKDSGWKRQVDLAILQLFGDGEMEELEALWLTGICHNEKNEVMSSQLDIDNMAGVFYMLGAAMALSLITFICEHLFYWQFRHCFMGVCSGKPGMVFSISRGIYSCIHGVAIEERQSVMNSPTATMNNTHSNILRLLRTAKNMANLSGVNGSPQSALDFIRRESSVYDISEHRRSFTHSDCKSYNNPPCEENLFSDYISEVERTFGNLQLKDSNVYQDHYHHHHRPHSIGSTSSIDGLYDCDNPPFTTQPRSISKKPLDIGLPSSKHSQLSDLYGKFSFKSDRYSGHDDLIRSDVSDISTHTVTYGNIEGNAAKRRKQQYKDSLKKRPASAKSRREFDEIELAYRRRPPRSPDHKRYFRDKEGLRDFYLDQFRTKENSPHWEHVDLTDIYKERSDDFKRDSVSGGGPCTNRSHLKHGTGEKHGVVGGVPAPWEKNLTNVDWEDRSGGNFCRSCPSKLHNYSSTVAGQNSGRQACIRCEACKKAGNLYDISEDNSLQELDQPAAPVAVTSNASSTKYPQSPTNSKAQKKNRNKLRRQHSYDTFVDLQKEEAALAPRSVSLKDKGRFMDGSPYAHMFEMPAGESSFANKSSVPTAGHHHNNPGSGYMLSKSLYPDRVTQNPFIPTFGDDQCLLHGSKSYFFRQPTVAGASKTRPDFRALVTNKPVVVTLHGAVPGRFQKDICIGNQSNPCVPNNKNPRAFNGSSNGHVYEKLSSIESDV
UniProt O60928, whole entry M125R: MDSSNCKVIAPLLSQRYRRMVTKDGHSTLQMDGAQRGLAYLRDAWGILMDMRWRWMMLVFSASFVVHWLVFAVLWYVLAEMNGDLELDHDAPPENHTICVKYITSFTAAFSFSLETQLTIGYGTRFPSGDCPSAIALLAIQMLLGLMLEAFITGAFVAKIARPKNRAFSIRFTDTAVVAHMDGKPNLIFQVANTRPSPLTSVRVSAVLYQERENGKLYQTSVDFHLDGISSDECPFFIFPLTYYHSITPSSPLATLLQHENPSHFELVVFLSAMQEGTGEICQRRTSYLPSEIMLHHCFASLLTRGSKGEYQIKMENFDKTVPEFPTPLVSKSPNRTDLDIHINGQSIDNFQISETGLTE
UniProt O39927, 2428-3018 limits assumed: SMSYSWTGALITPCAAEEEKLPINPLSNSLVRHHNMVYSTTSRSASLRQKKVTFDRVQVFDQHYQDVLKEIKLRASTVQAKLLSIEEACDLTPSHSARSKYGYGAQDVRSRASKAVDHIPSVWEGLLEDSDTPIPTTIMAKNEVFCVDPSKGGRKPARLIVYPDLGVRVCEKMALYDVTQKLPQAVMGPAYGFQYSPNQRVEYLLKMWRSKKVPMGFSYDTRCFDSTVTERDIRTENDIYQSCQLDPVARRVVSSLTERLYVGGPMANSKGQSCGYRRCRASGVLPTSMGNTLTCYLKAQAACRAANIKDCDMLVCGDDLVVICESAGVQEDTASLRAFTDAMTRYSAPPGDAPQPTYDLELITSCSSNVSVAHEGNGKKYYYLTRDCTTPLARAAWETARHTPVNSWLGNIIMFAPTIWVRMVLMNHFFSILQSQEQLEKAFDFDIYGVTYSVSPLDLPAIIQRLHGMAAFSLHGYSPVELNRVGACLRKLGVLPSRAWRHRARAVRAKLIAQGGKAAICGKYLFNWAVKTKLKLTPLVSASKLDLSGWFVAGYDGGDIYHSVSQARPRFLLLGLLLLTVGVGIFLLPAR
UniProt O15455, whole entry, looked up: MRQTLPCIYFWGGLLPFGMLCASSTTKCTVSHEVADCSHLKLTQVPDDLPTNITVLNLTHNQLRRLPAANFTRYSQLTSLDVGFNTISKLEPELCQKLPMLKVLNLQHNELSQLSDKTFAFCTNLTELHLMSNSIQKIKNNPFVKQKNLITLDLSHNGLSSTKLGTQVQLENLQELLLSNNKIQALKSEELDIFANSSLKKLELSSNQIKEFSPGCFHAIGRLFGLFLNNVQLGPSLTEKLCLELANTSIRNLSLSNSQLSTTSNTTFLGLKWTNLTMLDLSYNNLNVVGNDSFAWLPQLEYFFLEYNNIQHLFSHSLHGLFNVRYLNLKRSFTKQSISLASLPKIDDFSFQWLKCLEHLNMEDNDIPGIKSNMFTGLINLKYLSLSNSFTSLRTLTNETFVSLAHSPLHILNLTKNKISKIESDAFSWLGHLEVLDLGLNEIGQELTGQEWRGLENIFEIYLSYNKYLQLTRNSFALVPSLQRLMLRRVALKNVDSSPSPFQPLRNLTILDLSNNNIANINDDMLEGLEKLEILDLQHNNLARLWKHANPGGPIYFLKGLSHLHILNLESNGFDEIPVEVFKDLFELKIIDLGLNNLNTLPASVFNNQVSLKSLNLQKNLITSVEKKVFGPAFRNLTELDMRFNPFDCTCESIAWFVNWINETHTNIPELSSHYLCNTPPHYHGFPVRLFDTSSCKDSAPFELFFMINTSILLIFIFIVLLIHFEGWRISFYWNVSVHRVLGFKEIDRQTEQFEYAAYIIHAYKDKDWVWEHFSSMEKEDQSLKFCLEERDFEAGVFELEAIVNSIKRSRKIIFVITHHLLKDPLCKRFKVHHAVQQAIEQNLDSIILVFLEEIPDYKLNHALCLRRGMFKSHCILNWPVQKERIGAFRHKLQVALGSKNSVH
UniProt P0AC78, whole entry: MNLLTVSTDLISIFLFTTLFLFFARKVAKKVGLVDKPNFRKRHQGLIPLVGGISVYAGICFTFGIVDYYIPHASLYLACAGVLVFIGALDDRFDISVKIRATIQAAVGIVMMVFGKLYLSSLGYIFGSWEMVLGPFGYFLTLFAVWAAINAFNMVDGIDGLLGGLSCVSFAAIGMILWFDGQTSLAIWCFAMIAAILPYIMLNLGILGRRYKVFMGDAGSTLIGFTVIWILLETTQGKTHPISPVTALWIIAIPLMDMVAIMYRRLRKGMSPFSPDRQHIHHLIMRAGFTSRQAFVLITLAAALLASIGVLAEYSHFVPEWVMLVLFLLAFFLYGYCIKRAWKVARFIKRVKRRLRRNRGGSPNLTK
UniProt Q07440, 1-152 P104K/C113S limits assumed: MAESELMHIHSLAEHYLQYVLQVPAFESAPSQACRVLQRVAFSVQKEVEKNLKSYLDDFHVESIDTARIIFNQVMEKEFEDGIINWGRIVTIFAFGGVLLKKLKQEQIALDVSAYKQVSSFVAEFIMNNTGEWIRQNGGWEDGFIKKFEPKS
UniProt Q07812, whole entry: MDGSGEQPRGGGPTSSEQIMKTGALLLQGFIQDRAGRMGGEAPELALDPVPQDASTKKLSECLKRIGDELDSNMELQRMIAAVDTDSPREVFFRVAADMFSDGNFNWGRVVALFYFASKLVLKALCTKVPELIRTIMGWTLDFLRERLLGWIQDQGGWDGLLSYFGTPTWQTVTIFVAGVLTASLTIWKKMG
UniProt P52732, 18-359 limits assumed: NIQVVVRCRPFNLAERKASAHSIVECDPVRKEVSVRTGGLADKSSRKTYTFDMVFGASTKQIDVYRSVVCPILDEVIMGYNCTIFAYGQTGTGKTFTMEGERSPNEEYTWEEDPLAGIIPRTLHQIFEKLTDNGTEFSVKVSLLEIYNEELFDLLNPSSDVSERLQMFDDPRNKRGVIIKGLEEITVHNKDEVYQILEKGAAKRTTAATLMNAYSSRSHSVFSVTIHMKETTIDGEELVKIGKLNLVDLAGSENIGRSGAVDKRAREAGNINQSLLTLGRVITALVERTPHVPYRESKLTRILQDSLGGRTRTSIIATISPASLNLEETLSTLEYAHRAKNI
UniProt P45983, 1-384 isoform 3: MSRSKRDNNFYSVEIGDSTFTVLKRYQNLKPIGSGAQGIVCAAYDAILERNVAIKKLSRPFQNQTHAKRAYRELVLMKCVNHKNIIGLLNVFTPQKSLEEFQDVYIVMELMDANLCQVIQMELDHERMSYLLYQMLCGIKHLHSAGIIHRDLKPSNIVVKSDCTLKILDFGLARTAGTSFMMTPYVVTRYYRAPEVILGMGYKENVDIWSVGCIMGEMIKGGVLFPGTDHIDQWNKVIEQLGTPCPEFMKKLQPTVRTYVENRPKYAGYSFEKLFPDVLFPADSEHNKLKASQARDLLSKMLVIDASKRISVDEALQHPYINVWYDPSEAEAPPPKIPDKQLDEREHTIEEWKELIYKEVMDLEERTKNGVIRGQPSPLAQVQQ
UniProt P81908, whole entry: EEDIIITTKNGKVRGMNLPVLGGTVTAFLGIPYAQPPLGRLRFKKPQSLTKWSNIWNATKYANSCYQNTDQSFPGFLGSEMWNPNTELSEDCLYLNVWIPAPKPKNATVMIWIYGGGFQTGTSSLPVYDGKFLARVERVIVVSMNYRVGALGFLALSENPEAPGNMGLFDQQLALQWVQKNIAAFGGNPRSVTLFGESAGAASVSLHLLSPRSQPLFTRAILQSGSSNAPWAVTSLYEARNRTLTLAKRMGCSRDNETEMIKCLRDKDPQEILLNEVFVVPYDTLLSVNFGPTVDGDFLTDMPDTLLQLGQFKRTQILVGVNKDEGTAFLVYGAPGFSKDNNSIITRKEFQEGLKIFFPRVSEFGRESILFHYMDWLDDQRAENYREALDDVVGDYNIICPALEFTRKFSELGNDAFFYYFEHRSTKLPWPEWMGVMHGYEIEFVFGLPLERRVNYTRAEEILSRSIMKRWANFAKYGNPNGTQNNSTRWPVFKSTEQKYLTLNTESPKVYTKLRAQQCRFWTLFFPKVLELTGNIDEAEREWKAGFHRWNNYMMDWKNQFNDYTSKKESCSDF

c1cnc2sc3c(N4CCNCC4)ncnc3c2c1  IC50 (Beta-glucuronidase; enzyme activity, inhibitor): 2.7 ± 0.6 µM
COC(=O)C1=C(C(=O)OC)C2([C@H](Cc3ccccc3)Nc3ccc(OC)cc3)C=CC1O2 (stereo partly drawn)  IC50 (SUMO-activating enzyme subunit 2 with SAE1; SUMOylation, inhibitor, AlphaScreen; together with: SUMO1-RanGAP1 conjugation): 12.7 µM
CC(C)Cc1cc(C(=O)O)nc(O)n1  IC50 (Metallo-beta-lactamase type 2 (blaNDM-1, Klebsiella pneumoniae, UniProt C7C422); 10 min preincubation, together with: FC5 fluorogenic substrate): > 1000 µM
[2H]c1c([2H])c(S(=O)(=O)N2CCC(F)(C(=O)Nc3ccc4cc(C(=O)O)ccc4c3)CC2)c(C([2H])([2H])[2H])c([2H])c1C([2H])([2H])[2H]  IC50 (Fatty-acid amide hydrolase 1 (FAAH, Homo sapiens, UniProt O00519); pH 8, 37 °C, together with: OMP substrate 50 µM): 19 µM
O=c1ccn([C@@H]2O[C@H](COP(=O)(O)OP(=O)(O)OP(=O)(O)O)[C@@H](O)[C@]2(F)Br)c(=O)[nH]1  IC50 (Genome polyprotein, NS5B polymerase (Hepatitis C virus genotype 6a, UniProt O39927); polymerase activity, inhibitor; Hepatitis C virus, genotype 6a): 0.59 µM
CN(CCOc1ccc(C(=N)N)cc1)CCOc1ccc(C(=N)N)cc1  IC50 (Grin1/Grin2a/Grin2b MK-801 channel binding site; pH 7): 21.2 ± 5.1 µM
COc1ccc2c(c1)c1c(C)c3cnccc3c(C)c1n2C  IC50 (Toll-like receptor 3 (Homo sapiens, UniProt O15455); reporter gene, SEAP reporter; HEK-Blue hTLR3; together with: poly(I:C)): 0.12 ± 0.04 µM
N=C(N)c1ccc(NCCCCCNc2ccc(C(=N)N)cc2)cc1  IC50 (Glutamate NMDA receptor; Grin1/Grin2b, ifenprodil binding site (Grin1/Grin2b, Rattus norvegicus, UniProt P35439+Q00960); pH 7.4): 20.6 ± 5.4 µM
COc1ccc2c(=O)oc3c(OC)cc(CCN4CCNCC4)c4c(=O)oc1c2c34  IC50 (Toll-like receptor 2 (TLR2, Homo sapiens, UniProt O60603); reporter gene, antagonist, SEAP reporter; HEK-Blue hTLR2 cells; 24 h, together with: Pam3CSK4 100 ng/mL): 2.55 ± 0.07 µM
CC(=O)NCCc1c(COCc2[nH]c3cc(Br)ccc3c2CCNC(C)=O)[nH]c2cc(Br)ccc12  IC50 (Potassium voltage-gated channel subfamily A member 4 (KCNA4, Homo sapiens, UniProt P22459); ion current, inhibitor, automated whole-cell patch clamp; CHO-K1 inducible expression): 70 µM
O=C(c1ccc(O)c(Sc2ccccc2)c1)N1Cc2ccccc2C1  IC50 (Heat shock protein HSP 90-beta (HSP90AB1, Homo sapiens, UniProt P08238); binding, fluorescence polarization; together with: FITC-geldanamycin tracer): > 100 µM
CNCc1ccc(-c2ncc(OCC3CCNCC3)nc2-c2ccc(-c3ccoc3)cc2)cc1  IC50 (Genome polyprotein, NS2B-NS3 protease (ZIKV, UniProt A0A024B7W1); enzyme activity, inhibitor; Gly4-Ser-Gly4-linked NS2B-NS3 protease): 0.53 ± 0.06 µM
Cc1cc(S(=O)(=O)NC(C(=O)NO)C2CCOCC2)ccc1F (racemic)  IC50 (Matrix metalloproteinase-9 (MMP9, Homo sapiens, UniProt P14780); enzyme activity, fluorogenic peptide cleavage): 21 µM
O=C(COC(=O)CNC(=O)c1ccccc1Cl)Nc1ccccc1Cl  IC50 (Cruzipain (Trypanosoma cruzi, UniProt P25779); enzyme activity, inhibitor): 0.25 µM
CO[C@H]1[C@H](O[C@H]([C@H]2O[C@@H](n3ccc(=O)[nH]c3=O)[C@H](O)[C@@H]2O)[C@H](NCCCNC(=O)[C@@H](NC(=O)[C@@H](NC(=O)N[C@H](C(=O)O)C(C)C)[C@@H]2CCNC(=N)N2)[C@@H](OC(=O)CCCCCCCCCCCCN(O)C(=N)N)C(C)C)C(N)=O)O[C@H](CN)[C@H]1O  IC50 (Undecaprenyl-phosphate alpha-N-acetylglucosaminyl 1-phosphate transferase (wecA, Escherichia coli, UniProt P0AC78); enzyme activity, inhibitor): 0.085 ± 0.002 µM
CC(C)=CCC/C(C)=C/CCCCN1[C@H](COP(=O)(O)OP(=O)(O)O)[C@@]1(C)CC/C=C(\C)CCC=C(C)C (single isomer, unassigned)  IC50 (Squalene synthase ERG9; enzyme activity, inhibitor; pH 7.2, together with: 1.5 mM pyrophosphate, 100 µM [3H]FPP): 4.8 ± 0.9 µM
O=C(NC1CCN(Cc2cc(Cl)c3cccnc3c2O)CC1)OC1CCCC1  IC50 (KCNJ13 M125R; ion current, inhibitor, thallium flux; T-REx-HEK293): 2.8 µM
Cc1cc(C)n2c1C=C1C=CC(CCC(=O)NCCCCCN(CCc3ccccc3)C(=O)n3cc(-c4ccc(OC(F)(F)F)cc4)nn3)=[N+]1[B-]2(F)F  IC50 (Platelet-activating factor acetylhydrolase (Mus musculus, UniProt Q60963); enzyme activity, inhibitor, competitive ABPP with FP-Rh; transfected HEK-293T cell lysate; mouse Lp-PLA2): 0.039 µM
O=C(O)COCCN1CCN(C(c2ccccc2)c2ccc(Cl)cc2)CC1 (stereo not drawn)  IC50 (mRNA cap guanine-N(7) methyltransferase (RNMT, Homo sapiens, UniProt O43148); enzyme activity, inhibitor): 102 ± 21 µM
O=C(NC1CCN(Cc2cc(Cl)c3cccnc3c2O)CC1)OCc1ccccc1  IC50 (KCNJ13 M125R; ion current, inhibitor, thallium flux; T-REx-HEK293): 6.3 µM
COC(=O)C1=C(C(=O)OC)C2([C@H](Cc3ccccc3)Nc3ccc(Cl)cc3)C=CC1O2 (stereo partly drawn)  IC50 (SUMO-activating enzyme subunit 2 with SAE1; SUMOylation, inhibitor, AlphaScreen; together with: SUMO1-RanGAP1 conjugation): 2.4 µM
O=c1[nH]c2sc3c(c2c(=O)n1O)CCC3  IC50 (Gag-Pol polyprotein, integrase (gag-pol, Human immunodeficiency virus 1, UniProt P03366); integrase strand transfer, inhibitor): 5.6 ± 0.5 µM
NC(=O)c1cc(Sc2ccc(OCCN3CCOCC3)cc2)nc2ccccc12  IC50 (Calmodulin-domain protein kinase 1 (CDPK1, Toxoplasma gondii, UniProt Q9BJF5); kinase activity, inhibitor, ELISA; together with: syntide-2 substrate, ATP 25 µM): 7.3 µM
O=C(O)COc1c(SSc2cnn(-c3ccccc3)c(=O)c2OCC(=O)O)cnn(-c2ccccc2)c1=O  IC50 (srtA (Staphylococcus aureus, UniProt Q2FV99); inhibitor): 2.2 ± 0.2 µM
O=[N+]([O-])c1cc(N=Nc2c(O)ccc3cc(S(=O)(=O)O)ccc23)c(O)c([N+](=O)[O-])c1  IC50 (Bcl-2-related protein A1 (Mus musculus, UniProt Q07440, C113S/P104K); binding, inhibitor, fluorescence polarization competition; 3 µM Bfl-1/A1 protein, together with: 375 nM FITC-Noxa peptide): 68.9 µM
OC(CN1CCNCC1)Cn1c2ccccc2c2cc(Br)ccc21 (stereo not drawn)  IC50 (Apoptosis regulator BAX (BAX, Homo sapiens, UniProt Q07812); membrane permeabilization, inhibitor; ANTS/DPX liposomes; 400 nM BAX, together with: 30 nM tBID): 8.3 µM
COc1ccc(C(SC[C@H](N)C(=O)NCCOCCNC(=O)c2ccc(-c3c4ccc(=N)c(S(=O)(=O)O)c-4oc4c(S(=O)(=O)O)c(N)ccc34)c(C(=O)O)c2)(c2ccccc2)c2ccccc2)cc1  IC50 (Kinesin-like protein KIF11 (KIF11, Homo sapiens, UniProt P52732); microtubule-stimulated ATPase activity, inhibitor): 0.73 µM
CCCCCCCCCCCN1[C@@H](COP(=O)(O)CP(=O)(O)O)[C@]1(C)CC/C=C(\C)CCC=C(C)C (relative stereo)  IC50 (Squalene synthase ERG9; enzyme activity, inhibitor; pH 7.2, together with: 1.5 mM pyrophosphate, 100 µM [3H]FPP): no inhibition
CCOC(=O)/C=C1\[C@@H]2CCC[C@@]1(c1cccc(O)c1)CCN2CC1CC1CCNC(=O)c1cc2ccccc2[nH]1 (single isomer, unassigned)  IC50 (Mu-type opioid receptor (Oprm1, Mus musculus, UniProt P42866); Gi2 activation, antagonist, BRET; together with: DAMGO 100 nM): 5.77 µM
COc1cc(-c2n[nH]c3ccc(/C=C(\C#N)n4cncn4)cc23)cc(OC)c1OC  IC50 (Ribosomal protein S6 kinase alpha-3, C-terminal kinase domain (Rps6ka3, Mus musculus, UniProt P18654); kinase activity, inhibitor; C-terminal kinase domain): 0.047 µM
COC(=O)[C@@]1(C)C=C(C(=O)Nc2ccc(C)c(C(=O)Nc3ccc(Nc4nccc(-c5cccnc5)n4)cc3)c2)C(=O)CC1  IC50 (Mitogen-activated protein kinase 8 (MAPK8, Homo sapiens, UniProt P45983); enzyme activity; together with: glutathione 10 mM): 0.012 ± 0.001 µM
COc1ccc(Sc2cc(C(=O)N3Cc4ccccc4C3)ccc2O)cc1OC  IC50 (Heat shock protein HSP 90-alpha (HSP90AA1, Homo sapiens, UniProt P07900); binding, fluorescence polarization; together with: FITC-geldanamycin): ~0.53 µM
COC(=O)C1=C(C(=O)OC)C2([C@@H](C)Nc3ccc(OC)cc3)C=CC1O2 (stereo partly drawn)  IC50 (SUMO-activating enzyme subunit 2 with SAE1; SUMOylation, inhibitor, AlphaScreen; together with: SUMO1-RanGAP1 conjugation): 55.2 µM
CCOC(=O)NC1CCN(Cc2cc(Cl)c3cccnc3c2O)CC1  IC50 (KCNJ13 M125R; ion current, inhibitor, thallium flux; T-REx-HEK293): 9.8 µM
Cc1cnc(Nc2ccc(N3CCN(C)CC3)cc2)nc1Nc1cccc(NS(=O)(=O)C(C)(C)C)c1  IC50 (Tyrosine-protein kinase JAK2 (JAK2, Homo sapiens, UniProt O60674); kinase activity; together with: ATP 10 µM): 0.0027 µM
NCc1ccc(-c2ncc(OCC3CCNCC3)nc2-c2ccc(-c3ccoc3)cc2)cc1  IC50 (Genome polyprotein, NS2B-NS3 protease (pol, Dengue virus type 3, UniProt Q6YMS4); enzyme activity, inhibitor; dengue virus type 3 NS2B-NS3 protease): 0.52 ± 0.06 µM
C/C=C1\NC(=O)[C@@H](NC(=O)[C@@H](NC(=O)[C@H](C)NC(=O)C/C(C)=C/Cl)[C@@H](C)CC)[C@@H](C)OC(=O)[C@H](C(C)C)NC(=O)[C@H](Cc2ccc(O)cc2)N(C)C(=O)[C@H](Cc2ccccc2)N2C(=O)[C@H](CC[C@H]2OC)NC1=O  IC50 (Proteinase K (PROK, Engyodontium album, UniProt P06873); enzyme activity, inhibitor; 30 min, pH 7.4, 22 °C, together with: Suc-Ala-Ala-Pro-Phe-AMC): 0.0986 µM
O=C(NC1CCN(Cc2cc(Cl)c3cccnc3c2O)CC1)c1ccccc1Cl  IC50 (KCNJ13 M125R; ion current, inhibitor, thallium flux; T-REx-HEK293): 15.8 µM
O=C(NO)c1cc(F)cc(F)c1  IC50 (hdac6 CD2 catalytic domain; enzyme activity, inhibitor, fluorogenic; 30 min, together with: Ac-RHK(Ac)K(Ac)-AMC): 1.6 ± 0.1 µM
CN(C)c1ccc2c(n1)sc1c(N3CCNCC3)ncnc12  IC50 (Beta-glucuronidase; enzyme activity, inhibitor): 0.8 ± 0.2 µM
C=CC[C@@H](Nc1ccccc1)C12C=CC(O1)C(C(=O)OC)=C2C(=O)OC (stereo partly drawn)  IC50 (SUMO-activating enzyme subunit 2 with SAE1; SUMOylation, inhibitor, AlphaScreen; together with: SUMO1-RanGAP1 conjugation): 1.69 µM
O=C(NO)c1cccc(F)c1  IC50 (hdac6 CD2 catalytic domain; enzyme activity, inhibitor, fluorogenic; 30 min, together with: Ac-RHK(Ac)K(Ac)-AMC): 3.6 ± 0.7 µM
CNc1nc(N2CCNCC2)c2sc3nc(-c4ccccc4)ccc3c2n1  IC50 (uidA; enzyme activity, inhibitor): 0.05 ± 0.02 µM
CCN(C)C(=O)Oc1ccc(/C=C/C(=O)NC2CCN(Cc3ccccc3)CC2)cc1  IC50 (Cholinesterase (BCHE, Equus caballus, UniProt P81908); enzyme activity, inhibitor, Ellman): 0.97 ± 0.02 µM
CNc1nc(N2CCNCC2)c2sc3ncccc3c2n1  IC50 (Beta-glucuronidase; enzyme activity, inhibitor): 0.5 ± 0.1 µM
Nc1c(S(=O)(=O)Oc2ccccc2NC(=O)Cc2c[nH]c3ccccc23)ccc2ccccc12  IC50 (5'-nucleotidase (Rattus norvegicus, UniProt P21588); malachite green; rat): 0.91 ± 0.04 µM
CNc1ccc2c(n1)sc1c(N3CCNCC3)nc(NC)nc12  IC50 (uidA; enzyme activity, inhibitor): 0.02 ± 0.005 µM
Cc1ccc(S(=O)(=O)N(CCOc2ccc(C(=N)N)cc2)CCOc2ccc(C(=N)N)cc2)cc1  IC50 (Grin1/Grin2a/Grin2b MK-801 channel binding site; pH 7): 0.24 ± 0.08 µM

For quick reference, copied from above:
O=C(NC1CCN(Cc2cc(Cl)c3cccnc3c2O)CC1)OC1CCCC1  IC50 (KCNJ13 M125R; ion current, inhibitor, thallium flux; T-REx-HEK293): 2.8 µM
Cc1cc(C)n2c1C=C1C=CC(CCC(=O)NCCCCCN(CCc3ccccc3)C(=O)n3cc(-c4ccc(OC(F)(F)F)cc4)nn3)=[N+]1[B-]2(F)F  IC50 (Platelet-activating factor acetylhydrolase (Mus musculus, UniProt Q60963); enzyme activity, inhibitor, competitive ABPP with FP-Rh; transfected HEK-293T cell lysate; mouse Lp-PLA2): 0.039 µM
O=C(O)COCCN1CCN(C(c2ccccc2)c2ccc(Cl)cc2)CC1 (stereo not drawn)  IC50 (mRNA cap guanine-N(7) methyltransferase (RNMT, Homo sapiens, UniProt O43148); enzyme activity, inhibitor): 102 ± 21 µM
